Published values gathered from unrelated publications.
Each line is one published result; not all experiments were run side by side. Numbers after ± are the reported error.
CNR1: Cannabinoid receptor 1 (CNR1, Homo sapiens, UniProt P21554)
Ryanodine receptor 1: Ryanodine receptor 1 (Oncorhynchus mykiss, UniProt A0A8C7UX14)

Molecule	tested on	test	system	conditions	how to read	quantity	value
O=S(=O)(c1cccc2cccnc12)N1CC(c2nc(-c3ccc(F)cc3)no2)C1	Calcium-activated potassium channel subunit alpha-1, with beta-3 subunit (KCNMA1, Homo sapiens, UniProt Q12791)	–	HEK293	30 µM	–	activity	inactive
C[C@H]1CCCC(=O)CCC/C=C/c2cc(O)cc(O)c2C(=O)O1	zhd101 (Clonostachys rosea, UniProt Q8NKB0, D157K)	substrate, HPLC	–	10 min, pH 5.5, 37 °C, 1% acetonitrile	–	Km	20.8 ± 1.77 mM
O=S1(=O)c2cc(N3CCN4CCC3CC4)ccc2-c2cccc([18F])c21	CHRNA7 (Homo sapiens, UniProt P36544)	PET imaging radioligand	human, high-binding brain regions	dose not given	–	distribution volume	> 20 mL/mL
O=S(=O)(O)Oc1ccc(-c2ccc(Cl)cc2Cl)cc1Cl	sulfatase, human liver microsomes	substrate	–	pH 7.4, 37 °C	–	Vmax	33.8 ± 3 nmol/min/mg
NC(=O)c1cccc(C2(NC(=O)c3nn(Cc4ccc(F)cc4)c4ccccc34)CC2)c1	CNR1	calcium mobilization, agonist	CHO-K1 expressing Gαq16	–	baseline: CP55,940 maximum	Emax	25 ± 5%
C[C@@H](OP(=O)(O)O)[C@H](N)C(=O)O	Phospholysine phosphohistidine inorganic pyrophosphate phosphatase (LHPP, Homo sapiens, UniProt Q9H008)	substrate, absorbance	–	100 µM, 90 min, pH 7.8	–	substrate hydrolysis	3.67%
O=C1c2c(O)ccc(O)c2C(=O)c2c(NCCNCCO)ccc(NCCNCCO)c21	sfp (Bacillus subtilis, UniProt P39135)	enzyme activity	–	concentration not given, pH 7.6	–	activity	inactive
CC(C)Cc1ccc(NC(=O)Oc2ccc3c(c2)[C@]2(C)CCN[C@@H]2N3)cc1	Cholinesterase (BCHE, Homo sapiens, UniProt P06276)	inhibitor, immobilized enzyme reactor, HPLC-UV	immobilized recombinant human enzyme	30 °C, after near-complete inhibition	–	decarbamoylation rate constant k3	0.163 ± 0.003 h⁻¹
Clc1cc(Cl)c(-c2c(Cl)cc(Cl)c(Cl)c2Cl)cc1Cl	Ryanodine receptor 1	[3H]ryanodine binding	rainbow trout, skeletal muscle microsomes	–	–	EC20	6.76 µM
CC(=O)N[C@H]1[C@H](O[C@H]2[C@@H](O)[C@@H](CO)O[C@@H](O[C@H]3[C@H](O)[C@@H](O)[C@H](OCCN)O[C@@H]3CO)[C@@H]2O)O[C@H](CO)[C@@H](O[C@@H]2O[C@H](CO)[C@H](O[C@H]3O[C@H](CO)[C@H](O)[C@H](O[C@@H]4O[C@H](CO)[C@H](O)[C@H](O)[C@H]4NC(C)=O)[C@H]3O)[C@H](O)[C@H]2O)[C@@H]1O	Agglutinin (Sclerotinia sclerotiorum, UniProt A7XUK7)	glycan array	–	concentration not given, pH 7.4, room temperature	–	lectin binding	19900 ± 810 RFU
Clc1ccc(Cl)c(-c2cc(Cl)ccc2Cl)c1	Ryanodine receptor 1	[3H]ryanodine binding, activator	trout muscle microsomes	concentration not given	baseline: DMSO	Emax	~250%
Cc1ccc(Oc2ccc(C(=O)N[C@H](CN3CCN(c4cccc(O)c4)[C@@H](C)C3)C(C)C)cc2)cc1	OPRD1 (Homo sapiens, UniProt P41143)	antagonist	CHO	added: DPDPE	–	Ke	188 ± 33 nM
CN[C@@](C)(C[18F])C(=O)O	A549 tumour model	–	host not given, bone	2 h, tumour-bearing	–	tracer uptake	1.9 %ID/g
O=C(O)C[C@@H]1CC[C@H](NC(=O)Cc2cccs2)B(O)O1	ampC (Burkholderia multivorans, UniProt A0A0H3KN52)	–	–	15 min, added: nitrocefin	–	turnover number	200
CCCCSS(C)(=O)=O	Gabrg2/GABRB2/Gabra1 (Rattus norvegicus, UniProt P18508+P47870+P62813, C260A/C282A/C312A/C319A/C341A/F313C)	covalent modifier, two-electrode voltage clamp	Xenopus laevis oocytes	0.5 mM, labelled without GABA, added: GABA EC10	baseline: before labelling	GABA current	decreased
CC(=O)SCCNC(=O)CCNC(=O)[C@H](O)C(C)(C)COP(=O)(O)OP(=O)(O)OC[C@H]1O[C@@H](n2cnc3c(N)ncnc32)[C@H](O)[C@@H]1OP(=O)(O)O	2-isopropylmalate synthase, heterodimer with wild-type (leuA, Neisseria meningitidis serogroup B, UniProt Q9JZG1, R32Q)	enzyme activity, substrate, DTP-coupled	–	R32Q heterodimer, one chain, added: α-ketoisovalerate 300 µM	–	Km	0.035 ± 0.005 mM

Molecule	tested on	test	system	conditions	how to read	quantity	value
CC1(C)Cc2c(sc(NC(=O)c3ccn[nH]3)c2C(N)=O)C(C)(C)O1	CFTR (Homo sapiens, UniProt P13569, F312A)	channel current, potentiator, inside-out patch clamp	CHO, transfected	20 µM, added: ATP 2 mM	baseline: initial current in ATP	current ratio	~1.3
Nc1ncnc2c1ncn2C1CC2OP(=O)(O)OCC3OC(n4cnc5c(N)ncnc54)C(O)C3OP(=O)(O)OCC2O1 (stereo not shown)	gdpP, residues 84-659 (Bacillus subtilis, UniProt P37484)	substrate, HPLC	–	100 µM, 37 °C, upper limit if undegraded 24 h, added: enzyme 1 µM	–	degradation rate	3.5 ± 0.3 mol/min/mol enzyme
N[C@@H](CCSN=O)C(=O)O	Arginine deiminase (arcA, Bacillus cereus, UniProt B7JN59)	irreversible inhibitor	–	–	–	KI	66000 ± 30000 µM
O=C(Cc1ccccc1)NC1CCOC1=O (stereo not shown)	rhlR (Pseudomonas aeruginosa, UniProt P54292)	reporter gene, agonist	Escherichia coli reporter strain	100 µM	baseline: BHL 900 µM	activation	84%
O=P1(S)OCC2OC(n3cnc4cc(Cl)c(Cl)cc43)C(O)C2O1 (stereo not shown)	cAMP-dependent protein kinase type II-beta regulatory subunit, holoenzyme with catalytic subunit (Prkar2b, Rattus norvegicus, UniProt P12369, S112A)	PKA holoenzyme activation, activator, fluorescence anisotropy	–	–	baseline: RIIβ over RIα, higher = RIIβ-selective	selectivity ratio	4.1
Clc1ccc(-c2cc(Cl)c(Cl)cc2Cl)c(Cl)c1	Ryanodine receptor 1	[3H]ryanodine binding	rainbow trout, skeletal muscle microsomes	–	–	EC20	15.5 µM
NC(=O)CN1CCC[C@H](NC(=O)c2nn(Cc3ccc(F)cc3)c3ccccc23)C1	CNR1	calcium mobilization, agonist	CHO-K1 expressing Gαq16	–	baseline: CP55,940 maximum	Emax	115 ± 6%
anthraquinone-neomycin	poly(dA)•2poly(dT) triplex DNA	isothermal titration calorimetry	–	concentration not given, pH 6.8, 20 °C, KCl 150 mM	–	binding enthalpy	-53.1 ± 0.837 kJ/mol
CALL	Protein farnesyltransferase (Homo sapiens, UniProt P49354+P49356)	enzyme activity, substrate, fluorimetric	peptide	3 µM, 30 min, added: 9 µM farnesyl diphosphate	baseline: dansyl-GCVLS (set to 1.0)	relative fluorescence increase	< 0.05
DNRDGNVYYF	Serine endoprotease DegS (degS, Escherichia coli, UniProt P0AEE3, D320A/H198P)	–	peptide	30 µM, 23 °C, enzyme 0.1 µM trimer, added: saturating OMP peptide	–	Hill coefficient	1.1 ± 0.1
CC[C@H](C)[C@H](NC(=O)[C@H](C)NC(=O)[C@H](CCC(=O)O)NC(C)=O)C(=O)N[C@H]1CCCC=CCCC[C@@H](C(=O)N[C@@H](CCC(N)=O)C(=O)N[C@@H](CC(C)C)C(=O)N[C@@H](CC(C)C)C(=O)N[C@@H](Cc2ccccc2)C(=O)N[C@H](C(=O)N[C@@H](Cc2c[nH]cn2)C(=O)N[C@@H](Cc2ccccc2)C(=O)N[C@@H](CCCNC(=N)N)C(=O)N[C@H](C(=O)NCC(=O)N[C@@H](CCCNC(=N)N)C(=O)N[C@@H](CCC(=O)O)C(=O)N[C@@H](CCCNC(=N)N)C(=O)N[C@@H](CCC(=O)O)C(=O)N[C@@H](CCCNC(=N)N)C(=O)N[C@@H](CCC(=O)O)C(=O)N[C@@H](CCCNC(=N)N)C(=O)N[C@@H](CCC(=O)O)C(N)=O)[C@@H](C)CC)[C@@H](C)CC)NC(=O)[C@H](CC(C)C)NC(=O)[C@H]([C@@H](C)CC)NC(=O)[C@H](CCCNC(=N)N)NC1=O	HIV-1 integrase and DNA substrate	DNA binding, gel retardation	–	2 h, 37 °C, added: radiolabelled oligonucleotide DNA	–	minimum DNA retardation concentration	37 µM
KQTARKSTGGWW (butyryl-Lys9)	HDAC8 (Homo sapiens, UniProt Q9BY41)	substrate, HPLC	peptide	1 µM, 1 h, pH 8, 37 °C	–	kcat/Km	12.6 ± 0.3 M⁻¹ s⁻¹
O=c1cc(-c2ccccc2)oc2cc(O)ccc12	Cytochrome P450 1A1 (CYP1A1, Homo sapiens, UniProt P04798)	EROD activity, mechanism-based inhibitor	–	–	–	kinact	0.00192 s⁻¹
C[C@H](NC(=O)c1nn(Cc2ccc(F)cc2)c2ccccc12)c1cccc(C(N)=O)c1	CNR1	calcium mobilization, agonist	CHO-K1 expressing Gαq16	–	baseline: CP55,940 maximum	Emax	85 ± 6%
berbamine	Heat shock protein HSP 90-alpha, C-terminal domain (HSP90AA1, Homo sapiens, UniProt P07900)	binding, zonal affinity chromatography	–	pH 7.4, 25 °C	–	retention factor	15.3

For quick reference, copied from above:
Molecule	tested on	test	system	conditions	how to read	quantity	value
CC(C)Cc1ccc(NC(=O)Oc2ccc3c(c2)[C@]2(C)CCN[C@@H]2N3)cc1	Cholinesterase (BCHE, Homo sapiens, UniProt P06276)	inhibitor, immobilized enzyme reactor, HPLC-UV	immobilized recombinant human enzyme	30 °C, after near-complete inhibition	–	decarbamoylation rate constant k3	0.163 ± 0.003 h⁻¹
Cc1ccc(Oc2ccc(C(=O)N[C@H](CN3CCN(c4cccc(O)c4)[C@@H](C)C3)C(C)C)cc2)cc1	OPRD1 (Homo sapiens, UniProt P41143)	antagonist	CHO	added: DPDPE	–	Ke	188 ± 33 nM
O=S(=O)(O)Oc1ccc(-c2ccc(Cl)cc2Cl)cc1Cl	sulfatase, human liver microsomes	substrate	–	pH 7.4, 37 °C	–	Vmax	33.8 ± 3 nmol/min/mg
